# Assay results gathered from unrelated publications.
# Parts stem from different laboratories: compare values within a part only. Substitutions count along the parent as printed.

# Study 1
# Target: Prothrombin, mature alpha-thrombin (F2, Homo sapiens, UniProt P00734)
# Technique: aptamer microarray, sandwich
# Molecule type: DNA with 2'F-ANA
# Medium: in vitro
# Tested at: 200 nM
# Notes: whole 15-mer aptamer, many near background
# Added: Cy3 exosite-II aptamer, 400 nM
# Reading: higher = stronger binding
# Strand: GGTTGGTGTGGTTGG
Modification,mean fluorescence intensity [a.u.]
2'F-ANA at 1 5 6 7 8 10 11 13,49.4
2'F-ANA at 1 2 3 4 5 6 7 8 9 12 13 14 15,53.1
2'F-ANA at 1 2 4 5 6 8 9 10 12 14 15,47
2'F-ANA at 2 3 4 5 8 10 11 13 14,49.9
2'F-ANA at 1 5 6 7 8 10 11 13 14 15,59.1
2'F-ANA at 1 2 3 4 5 8 13 15,56.3
2'F-ANA at 1 2 4 6 8 11 12 15,264
2'F-ANA at 2 3 5 8 10 11 12 14 15,52.1
2'F-ANA at 2 4 7 10 15,98.1
2'F-ANA at 2 3 5 6 7 9 10 15,113
2'F-ANA at 1 3 6 7 10 12,111
2'F-ANA at 8 11 13 14 15,190
2'F-ANA at 1 4 5 7 8 9 11 13 14,71.9
2'F-ANA at 2 5 6 7 8 10,47.5
2'F-ANA at 1 2 5 6 8 13 15,52.6
2'F-ANA at 2 3 4 5 14,50.4
2'F-ANA at 6 7 13,382
2'F-ANA at 1 2 5 7 9 10 11 15,76.7
2'F-ANA at 5 7 8 10 13,43.8
2'F-ANA at 2 4 7 12 14 15,183
2'F-ANA at 4 6 12,624
2'F-ANA at 3 4 5 6 10 11 13 14 15,58.6
2'F-ANA at 1 9 11 14 15,51.6
2'F-ANA at 1 2 5 6 10 12 13,55.6
2'F-ANA at 3 4 6 7 8 9 10 11 12 14 15,167

# Study 2
# Target: TEF, bZIP domain (human)
# Technique: DHFR protein complementation
# Medium: yeast
# Notes: single substitutions, most at no-binding floor
# Relative to: wild-type JUN-FOS pair
# Reading: higher = stronger binding
# Starting sequence: JUN, bZIP domain (human); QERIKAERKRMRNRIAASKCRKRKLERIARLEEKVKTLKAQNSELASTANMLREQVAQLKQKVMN; partner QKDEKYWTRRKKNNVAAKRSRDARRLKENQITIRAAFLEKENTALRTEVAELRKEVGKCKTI
Substitution,binding fitness [natural log]
A57W,-1.48
S47I,-1.42
A57R,-1.52
V35G,-1.42
K36M,-1.52
L38Q,-1.59
L38G,-1.52
N42W,-1.48
E44S,-1.39
A29T,-1.44
A57T,-1.12
K36V,-1.41
R30F,-1.5
K36H,-1.46
E33I,-1.5
L38P,-1.44
T48E,-1.54

# Study 3
# Target: Sal-like protein 4, full length isoform B (SALL4, Homo sapiens, UniProt Q9UJQ4-2, residues 1-616)
# Technique: universal PBM
# Molecule type: double-stranded DNA, one strand shown
# Medium: in vitro
# Tested at: not given
# Notes: 8-mer, flanks averaged, mean of replicates
# Reading: higher = stronger binding
# Residues (chain): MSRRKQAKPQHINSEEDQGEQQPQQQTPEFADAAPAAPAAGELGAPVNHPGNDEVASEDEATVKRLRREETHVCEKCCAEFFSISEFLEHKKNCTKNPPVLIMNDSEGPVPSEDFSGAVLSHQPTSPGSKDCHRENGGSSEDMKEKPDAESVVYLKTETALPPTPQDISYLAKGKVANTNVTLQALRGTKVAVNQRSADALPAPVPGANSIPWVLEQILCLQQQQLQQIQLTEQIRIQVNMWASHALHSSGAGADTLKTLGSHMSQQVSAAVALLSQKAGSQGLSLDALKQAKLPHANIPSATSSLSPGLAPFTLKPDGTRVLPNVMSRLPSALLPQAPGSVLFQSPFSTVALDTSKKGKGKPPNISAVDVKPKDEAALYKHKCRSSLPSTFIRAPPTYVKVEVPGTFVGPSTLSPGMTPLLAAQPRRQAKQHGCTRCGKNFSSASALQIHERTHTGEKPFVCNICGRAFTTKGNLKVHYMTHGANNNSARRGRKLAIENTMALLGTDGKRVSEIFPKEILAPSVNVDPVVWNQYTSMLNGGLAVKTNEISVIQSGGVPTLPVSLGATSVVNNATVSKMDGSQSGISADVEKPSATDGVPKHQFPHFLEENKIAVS
Strand,E-score
AGTACCAG,-0.127
TCGGTACA,0.0533
CTGCTCCA,-0.128
TCCCCAGA,-0.181
ATAGATTA,0.33
AACTCGTC,-0.123
CTTGCGCA,0.0972
GCGTGCGA,-0.279
AGTGACCA,-0.0577
CCGGGGCG,-0.397
CTGGAAAG,-0.13
CATCGACA,-0.133
GAGCTTAA,0.0144
ACCTTGTC,-0.103
GAGGCCTA,-0.256
TCCACTCA,-0.0617
GTAGAGAC,-0.0591
CTAAAAAA,0.303
GTTAACTA,0.199
CCGGTGAA,-0.116
AACGAGTC,0.0472
AGAATAAG,0.215
AGAGGATG,-0.116

# Study 4
# Target: CCND1, cyclin fold, Cln2 fusion (human)
# Technique: yeast growth competition, sequencing
# Medium: yeast
# Notes: strong parent motif
# Relative to: not given
# Reading: higher = stronger binding
# Starting sequence: RBL2 docking peptide (human); STTRRRLFVENDS; partner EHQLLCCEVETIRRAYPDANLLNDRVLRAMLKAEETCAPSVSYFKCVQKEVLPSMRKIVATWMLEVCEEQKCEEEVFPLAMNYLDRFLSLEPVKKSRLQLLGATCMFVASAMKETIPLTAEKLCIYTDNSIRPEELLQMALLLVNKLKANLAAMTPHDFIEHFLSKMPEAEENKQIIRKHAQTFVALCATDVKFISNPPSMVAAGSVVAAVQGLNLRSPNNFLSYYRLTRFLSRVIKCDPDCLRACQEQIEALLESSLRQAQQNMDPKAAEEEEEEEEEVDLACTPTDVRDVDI
Substitution,normalised enrichment score
STTRRRLFVENDM [S13M],0.0333
STTRRRLFGENDS [V9G],0.24
STTRRRLFVENPS [D12P],0.612
STTRRRLFVEQDS [N11Q],0.862
STTRRRLFVENDD [S13D],1.68
STTRRRLFVENDQ [S13Q],0.783
STTRRRLFYENDS [V9Y],1.19
STTRRRLKVENDS [F8K],-0.0514
STTRRRLFVETDS [N11T],1.08
VTTRRRLFVENDS [S1V],0.412
STTRRRLFVEFDS [N11F],0.753
STTRRRLEVENDS [F8E],0.232
STTRRILFVENDS [R6I],0.692
STTRRRLFVHNDS [E10H],0.196
STTRRRLFVFNDS [E10F],0.425
STTRRRWFVENDS [L7W],-0.546
STTDRRLFVENDS [R4D],-0.307
STTRRRLFVENDF [S13F],1.2
STTRRDLFVENDS [R6D],0.829
STTRRRLPVENDS [F8P],1.03
STTRRRLFMENDS [V9M],1.56
SITRRRLFVENDS [T2I],0.431
STTRRRLFDENDS [V9D],0.921
STTRRRLFVSNDS [E10S],0.569
STTRRRLRVENDS [F8R],-0.176

# Further values, each from its own experiment
Molecule,target,assay,test system,conditions,how to read,quantity,value
"PhoQ, residues 284 288 289 292 302 303 NLMGRA","PhoP, residues 12 14 15 18 19 NHTVL (Escherichia coli, UniProt P23836)","Sort-seq, measured: YFP reporter",E. coli,"PhoQ-PhoP variant library, added: 10 µM Mg2+","relative to: high Mg2+ state, higher = stronger signaling",fold induction,9.74
